Measured values from different studies.
Lines come from different studies, so protocols differ.
Target: Calcium/calmodulin-dependent protein kinase kinase 2 (CAMKK2, Homo sapiens, UniProt Q96RR4)

COc1c(Cl)cccc1Nc1c(-c2ccncc2C#C[C@@]2(C)CCCN2C(=O)/C=C/CN(C)C)[nH]c2c1C(=O)NCC2  remaining binding (binding, competition with immobilised ligand; 3 µM): 97%
C=CC(=O)N1CCc2ccc(-n3c(=O)ccc4cnc5ccc(-c6cnn(C)c6)cc5c43)cc21  remaining binding (KINOMEscan; 1 µM; relative to: DMSO control): 95%
C=CC(=O)N1Cc2nc(-c3cc(-c4cc(Cl)cnc4Cl)c(F)cc3F)n(-c3ccncn3)c2C1  inhibition (cell-free assay, inhibitor; 1 µM): -0.5%
CC(C)=CC1OC(C)(C)C2C=C3C(=O)C(Cl)=CC(O)C3C3C(O)C4OC4C(=O)C132 (centres unmarked)  remaining binding (cell-free assay, competition with immobilised ligand; 10 µM): 82%
CCN1CCN(Cc2ccc(C(=O)Nc3ccc(C)c(NCc4cnc5[nH]ccc5c4OC)c3)cc2C(F)(F)F)CC1  remaining binding (binding, competition with immobilised ligand; 1 µM): 96%
Cc1cccc(-c2ccc3nc(NC(=O)C4CCCCC4)nn3c2)c1  remaining activity (enzyme activity, Dundee kinase panel; 10 µM): 47%
Nc1ncc2c(n1)-c1c([nH]c3ccc(C4=CCOCC4)cc13)CCC2  remaining binding (binding, competition with immobilised ligand; 1 µM): 100%
NC(=O)C[C@H]1CCc2sc3ncnc(O[C@H]4CC[C@H](N5CCOCC5)CC4)c3c21  inhibition (enzyme activity, inhibitor; 10 µM): 13%
CNC1C[S+]2CC[S+]3CC[S+](C1)[Ru-4]321([N]=C=S)[n]2c3ccc(OC)cc3c3c4c(c5cc(F)c[n+]1c5c32)C(=O)NC4=O (centres unmarked)  remaining binding (KinomeScan; 0.1 µM; relative to: untreated): 99%
CN1CC[C@@H](COc2cnc(C#N)cc2-c2ccn3nc(NC(=O)C4CC4)cc3c2)C1  inhibition (enzyme activity, inhibitor; 1 µM): -3%
Nc1nc(Nc2ccccc2)sc1C(=O)c1ccccc1  remaining activity (enzyme activity, inhibitor; 10 µM): 15%
CNC(=O)C1CCN(c2cc(C)c(F)cc2NC(=O)c2ccc(-c3cc(O)ccc3C)c(C)c2)CC1  remaining binding (binding, competition with immobilised ligand; 1 µM): 90%
Cc1cccc(-c2ccc3nc(NC(=O)C4CCOCC4)nn3c2)c1  remaining activity (enzyme activity, Dundee kinase panel; 10 µM): 89%
COc1cc(Nc2nc(C)cc(-c3cnn4nc(OC)ccc34)n2)cc(C(F)(F)F)c1  remaining activity (inhibitor; 1 µM; relative to: control): 100%
